Experimental data collected from several papers.
Lines come from different studies, so protocols differ.
Observed: metabolic stability

COc1ccc(COc2c(OC)ccc3c2C[C@@H](C(=O)O)N(c2nc4ccc(F)cc4o2)C3)cc1
scaled CLint (rat, liver microsomes; 1 µM, pH 7.4): 10.4 mL/min/kg

Nc1ccn(C[C@@H](CO)OCP(=O)(O)OCCCS(=O)(=O)CCCCCCCCCCCCC2CCC2)c(=O)n1
hepatocyte CLint (rat, hepatocytes; 1 µM): 14.7 µL/min/10⁶ cells

Cc1ccc(N2C(=O)c3ccccc3NC23C(=O)N(C)c2ccc(Br)cc23)cc1 (centres unmarked)
hepatocyte CLint (rat, hepatocytes): 135 µL/min/10⁶ cells

CC1(CCCCCCCCCCCCS(=O)(=O)CCCOP(=O)(O)CO[C@H](CO)Cn2ccc(N)nc2=O)COC1
hepatocyte CLint (rat, hepatocytes; 1 µM): 33.3 µL/min/10⁶ cells

COC(=O)c1ccc2c(c1)NC(=O)/C2=C(\Nc1ccc2c(c1)CCN2C(=O)CN1CCOCC1)c1ccccc1
microsomal CLint (Sprague-Dawley rat, liver microsomes; 10 µM, pH 7.4): 70 µL/min/mg

Nc1ccn(C[C@@H](CO)OCP(=O)(O)OCCCS(=O)(=O)CCCCCCCCCCCCCC2CCC2)c(=O)n1
hepatocyte CLint (rat, hepatocytes; 1 µM): 6.85 µL/min/10⁶ cells

CCn1cc(C(=O)NCCNCCO)c(=O)c2cc(OCc3ccc(C(F)(F)F)cc3)c(C(F)(F)F)cc21
microsomal CLint (male rat, liver microsomes; 1 µM): < 11.6 µL/min/mg

Cc1cc(N2CCC(CO)(C3CC3)C2=O)cc(C(=O)NCc2cc(F)cc(-c3cnn(C)c3)c2)n1 (centres unmarked)
microsomal CLint (rat, liver microsomes; 0.5 µM): 11 µL/min/mg

CC1=N[C@H](C)Cc2c(-c3ccc(C)cc3)ccc(O)c21
microsomal CLint (male rat, liver microsomes; 1 µM): > 250 µL/min/mg

COc1ccc2c(c1OCc1ccccc1)C[C@@H](C(=O)O)N(c1nc3ccc(C#N)cc3o1)C2
scaled CLint (rat, liver microsomes; 1 µM, pH 7.4): 8.13 mL/min/kg

O=C(NCCNCCO)c1cn(Cc2ccccc2)c2c(Cl)c(OCc3ccc(C(F)(F)F)cc3)c(Cl)cc2c1=O
microsomal CLint (male rat, liver microsomes; 1 µM): < 11.6 µL/min/mg

Cc1cc(N2CC[C@@](C#N)(C3CC3)C2=O)cc(NC(=O)Cc2ccccc2)n1
microsomal CLint (rat, liver microsomes; 0.5 µM): 25 µL/min/mg

O=C(NCCNCCO)c1cn(Cc2ccc(F)cc2)c2cc(Cl)c(OCc3ccc(C(F)(F)F)cc3)cc2c1=O
microsomal CLint (male rat, liver microsomes; 1 µM): < 11.6 µL/min/mg

COc1cc(O)c(-c2cc(-c3cc(-c4c(O)cc(OC)c5c4C[C@@H](C)N[C@@H]5C)c4cc(C)cc(OC)c4c3O)c(O)c3c(OC)cc(C)cc23)c2c1[C@@H](C)N[C@H](C)C2
microsomal CLint (male rat, liver microsomes; 1 µM): < 11.6 µL/min/mg

Repeated from above:
Cc1cc(N2CCC(CO)(C3CC3)C2=O)cc(C(=O)NCc2cc(F)cc(-c3cnn(C)c3)c2)n1 (centres unmarked)
microsomal CLint (rat, liver microsomes; 0.5 µM): 11 µL/min/mg
